Measured values from different studies.
Parts stem from different laboratories: compare values within a part only. Substitutions count along the parent as printed.

Block 1 — technique: protein-binding microarray; molecule type: double-stranded DNA, one strand shown; medium: in vitro; concentration: 2200 nM top; setting: 60-bp whole probe; with: salmon DNA 0.4 mg/ml; reference: random background probes; reading: higher = stronger binding; constant ends, left off below: GCCTAGCAC … GTCTTGATTCGCTTGACGCTGCTG
Target: Interferon regulatory factor 7, full length, phosphomimetic (IRF7, Homo sapiens, UniProt Q92985, residues 1-503, S471D/S472D/S475D/S476D/S477D/S483D/S484D/S487D)
Residues (chain): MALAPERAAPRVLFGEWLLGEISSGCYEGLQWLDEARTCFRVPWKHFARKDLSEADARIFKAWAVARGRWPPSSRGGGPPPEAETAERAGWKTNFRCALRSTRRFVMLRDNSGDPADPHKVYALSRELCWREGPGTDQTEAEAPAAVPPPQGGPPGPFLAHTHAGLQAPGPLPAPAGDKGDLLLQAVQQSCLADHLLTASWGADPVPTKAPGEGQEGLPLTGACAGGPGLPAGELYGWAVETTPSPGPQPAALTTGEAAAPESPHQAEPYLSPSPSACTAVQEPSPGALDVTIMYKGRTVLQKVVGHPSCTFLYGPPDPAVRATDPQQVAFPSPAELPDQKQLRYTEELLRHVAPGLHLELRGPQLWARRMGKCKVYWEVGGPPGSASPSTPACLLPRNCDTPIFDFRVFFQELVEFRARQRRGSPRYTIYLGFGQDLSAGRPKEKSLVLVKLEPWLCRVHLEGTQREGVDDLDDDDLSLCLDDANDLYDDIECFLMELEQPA
Oligonucleotide	fitted relative affinity
TTAGATATCAGTCTTGATTAGTGCTAG	-0.152 z-score
GACGGTTTCCATATCCTGACGTGCTAG	3.59 z-score
TTAGATTTTTTTTCCTAATTGTGCTAG	0.483 z-score
TTAGGCATCCTTTTCCTTTAGTGCTAG	0.844 z-score
CTAGGTCTCGGTTTCGGTTAGTGCTAG	6.59 z-score
GACGGTATCTACACTGGGGACGTGCTA	-0.115 z-score
TTGCTGAAATAATACTGTTAGTGCTAG	-0.287 z-score
GACGGTCACGGACTGGGGACGTGCTAG	-1.15 z-score
TTAGGTTTCGCCTATCGGTTAGTGCTA	3.6 z-score
GACGGACCGGGGTATCGGGACGTGCTA	-1.02 z-score
ACTCAGCTCCTCTTCCAGGCGTGCTAG	0.825 z-score
TTAGGACCGCTTATCCTTTAGTGCTAG	0.265 z-score
TCAATTTTCATTAACTGACTGTGCTAG	1.07 z-score

Block 2 — target: CCNB1, cyclin fold, Cln2 fusion (human); technique: yeast growth competition, sequencing; medium: yeast; setting: weak parent motif; reference: not given; reading: higher = stronger binding
Starting sequence: SAMHD1 docking peptide (human); ASKSRVQLFKDDP
Substitution	normalised enrichment score
R5I	0.457
V6S	-0.232
K3Q	-0.0906
K3M	0.167
S2N	0.0182
L8T	0.212
K10I	0.789
L8S	-0.0778
F9R	0.0217
Q7C	0.344
L8G	0.206
D11V	-0.0101
K3E	0.149
F9K	0.168
S2L	0.689
R5Q	0.148

Block 3 — technique: RNA Bind-n-Seq; molecule type: RNA; medium: in vitro; concentration: 100 nM; reference: input RNA pool; reading: higher = stronger binding
Target: RING finger protein unkempt homolog, zinc fingers 1-6, SBP tag (UNK, Homo sapiens, UniProt Q9C0B0, residues 30-357)
Chain of UniProt Q9C0B0 (30-357, looked up): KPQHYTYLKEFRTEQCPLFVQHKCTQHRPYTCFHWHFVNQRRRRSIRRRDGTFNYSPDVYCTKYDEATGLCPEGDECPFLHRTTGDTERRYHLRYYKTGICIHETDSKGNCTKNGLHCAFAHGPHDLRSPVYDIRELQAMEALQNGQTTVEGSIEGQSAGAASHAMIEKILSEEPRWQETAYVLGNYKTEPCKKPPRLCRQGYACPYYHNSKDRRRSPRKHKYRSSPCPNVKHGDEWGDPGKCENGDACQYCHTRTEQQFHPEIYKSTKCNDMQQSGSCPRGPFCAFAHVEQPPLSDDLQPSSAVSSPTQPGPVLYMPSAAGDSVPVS
Setting: RNA with constant flanks, vertebrate orthologous sites, ends assumed
Constant ends, left off below: GGGAGUUCUACAGUCCGACGAUC … CAACAGAGGAUUGAGCAUCA
Oligonucleotide	bound/input enrichment
UUUGUGGGGGUUGGGGGGUGGGAGGAAGAUGUAUGAAGAUUAUUGGCAUUUUUAAGUGUUUGGAGUUUAGGGUAUUUUUUUUUUUGCCUCCUCUUUUAUUUUUCCCCCCUUUAAUUGGAU	0.799 ratio
CUCCCUCCCAGGACUGAGCAGUGGGGCCUGGGCCCACUGGCCACAUCAGCCAGGCCAUUUUAGCUCCUUUUUUUUUUUUUUUAAACCGUGACCUUGUUAUCCUGUAUAUAAGUGGAGAUU	2.02 ratio
UCCUCAACUUGUUCUAGCUUGUGAUCCUUCAAAUCUGGAUCAUGCAUUAGUGCUAGAUUCUAGACAUUUUCACUUCUCUUUCCACUGAUCAGAGAAACAGACAUUAAAAGCAGAAAUACA	1.85 ratio
UUUAAUUUCUUGUAUACAUGAUCUAGUCCUGUAUUAUUAUUAUUUUCUUACACGAUUGUUUGUCAGUAUGUCUGUGUCUGUCACAUUUCCUUCUCAGGCGAAGGGCUAGAGUUUAAAAAA	0.818 ratio
GGGUUUGGGGUAGAGGGGAGGGAGGGGGCAGGACAGUAUGGAAUCUCAAAGGCAUUGGUUAGGAACCUCUAGAGAUGGUUGGGGGUAAAGAUGAGUGUCACCCCUUCCCUCAGUCAUGUA	0.456 ratio
AAGAACAAGAGCAGCAUAGACUGAGCUUUGGGGAAAUGAGCUUUGCUUUUUAUAUUUAAAUAGAUACUUUUAUAUGAUGGGUGCUUUUGAGUGUGAAUGCAGCAGGCUCUCGCAUUUCAG	1.56 ratio
CGCUGGAUAGAUACCAGGAGCCACCACAGGCAAACUUUUGUUAAACUAAUUGUCAUCUGCACAACAGCUGAGCGGAAUAUUGACAUGUCCAAACUGCUGUCAGAUACUUAGACAGCUGGG	0.246 ratio

Mixed results
Molecule	target	assay	test system	setting	how to read	quantity	value
PhoQ, residues 284 288 289 292 302 303 HSYLQF	PhoP, residues 12 14 15 18 19 LHATL (Escherichia coli, UniProt P23836)	Sort-seq, refers to: YFP reporter	E. coli	PhoQ-PhoP variant library, with: 10 µM Mg2+	reference: high Mg2+ state, higher = stronger signaling	fold induction	2.07

A few entries again (block 3):
Oligonucleotide	bound/input enrichment
UCCUCAACUUGUUCUAGCUUGUGAUCCUUCAAAUCUGGAUCAUGCAUUAGUGCUAGAUUCUAGACAUUUUCACUUCUCUUUCCACUGAUCAGAGAAACAGACAUUAAAAGCAGAAAUACA	1.85 ratio
UUUAAUUUCUUGUAUACAUGAUCUAGUCCUGUAUUAUUAUUAUUUUCUUACACGAUUGUUUGUCAGUAUGUCUGUGUCUGUCACAUUUCCUUCUCAGGCGAAGGGCUAGAGUUUAAAAAA	0.818 ratio
GGGUUUGGGGUAGAGGGGAGGGAGGGGGCAGGACAGUAUGGAAUCUCAAAGGCAUUGGUUAGGAACCUCUAGAGAUGGUUGGGGGUAAAGAUGAGUGUCACCCCUUCCCUCAGUCAUGUA	0.456 ratio
AAGAACAAGAGCAGCAUAGACUGAGCUUUGGGGAAAUGAGCUUUGCUUUUUAUAUUUAAAUAGAUACUUUUAUAUGAUGGGUGCUUUUGAGUGUGAAUGCAGCAGGCUCUCGCAUUUCAG	1.56 ratio
